Results gathered from unrelated publications.
Numbered parts are unrelated; each lists some results of a single study. Several values in a cell are separate wells, animals, samples, runs or records.

Series 1 — cell line: HEK-293T/ACE2; tested at: 10 µM; time: 16 h; baseline: vehicle
| SMILES | viability |
| --- | --- |
| CCC(=O)OCC(=O)[C@@]1(OC(=O)CC)[C@@H](C)C[C@H]2[C@@H]3CCC4=CC(=O)C=C[C@]4(C)[C@@]3(F)[C@@H](O)C[C@@]21C | 102% |
| O=C(O)Cc1ccccc1Nc1c(Cl)cccc1Cl | 101% |
| CN(C/C=C/C#CC(C)(C)C)Cc1cccc2ccccc12 | 97.1% |
| C[C@@H]1O[C@@H](OC[C@H]2O[C@@H](Oc3c(-c4ccc(O)c(O)c4)oc4cc(O)cc(O)c4c3=O)[C@H](O)[C@@H](O)[C@@H]2O)[C@H](O)[C@H](O)[C@H]1O | 99.7% |
| CO[C@H]1C[C@@H]2CC[C@@H](C)[C@@](O)(O2)C(=O)C(=O)N2CCCC[C@H]2C(=O)O[C@H]([C@H](C)C[C@@H]2CC[C@@H](O)[C@H](OC)C2)CC(=O)[C@H](C)/C=C(\C)[C@@H](O)[C@@H](OC)C(=O)[C@H](C)C[C@H](C)/C=C/C=C/C=C/1C | 102% |

Series 2 — action: inhibitor; tested at: 20 µM
Target: Replicase polyprotein 1ab, nsp13 helicase (rep, Severe acute respiratory syndrome coronavirus 2, UniProt P0DTD1)
| SMILES | inhibition |
| --- | --- |
| CC(C)[C@@H]1CC[C@@H](C)C[C@H]1O | -0.12% |
| N#Cc1ccc(Oc2ccc3c(c2)COB3O)cc1 | 1.08% |
| C=CC(=O)Nc1cc(Nc2nccc(-c3cn(C)c4ccccc34)n2)c(OC)cc1N(C)CCN(C)C | 34.9% |
| CCCC(=O)O[C@]1(C(=O)CCl)[C@H](C)C[C@@H]2[C@@H]3CCC4=CC(=O)C=C[C@]4(C)[C@]3(F)C(=O)C[C@@]21C | 9.05% |
| CC1=C(C(=O)O)N2C(=O)[C@@H](NC(=O)[C@H](N)C3=CCC=CC3)[C@H]2SC1 | -0.26% and -2.38% |
| CO[C@@]1(NC(=O)C(C(=O)O)c2ccc(O)cc2)C(=O)N2C(C(=O)O)=C(CSc3nnnn3C)CO[C@@H]21 (stereo partly shown) | -0.87% |
| CC1=C(/C=C/C(C)=C/C=C/C(C)=C/CO)C(C)(C)CCC1 | 10.8% |
| CC(=O)OCC(=O)[C@@]1(O)CC[C@H]2[C@@H]3CCC4=CC(=O)CC[C@]4(C)[C@H]3C(=O)C[C@@]21C | -4.22% |
| CCCN(CCC)C(=O)C(CCC(=O)OCCCN1CCN(CCOC(=O)Cc2c(C)n(C(=O)c3ccc(Cl)cc3)c3ccc(OC)cc23)CC1)NC(=O)c1ccccc1 (stereo not shown) | -2.6% |
| Cc1ccccc1OCC(O)CO (stereo not shown) | 1.32% |
| COC(=O)C1=C(C)NC(C)=C(C(=O)NCCCN2CCC(c3ccccc3)(c3ccccc3)CC2)C1c1ccc([N+](=O)[O-])cc1 (stereo not shown) | 0.38% |
| O=C(O)c1cc2cccc([N+](=O)[O-])c2[nH]1 | 7.09% |

Series 3 — technique: competition protein-binding microarray; form: double-stranded DNA, one strand shown; matrix: in vitro; tested at: 2 µM; added: Cbf1 competitor, 0.05 µM; direction: higher = stronger binding; constant ends, left off below: … GTCTTGATTCGCTTGACGCTGCTG
Target: Phosphate system positive regulatory protein PHO4, full length, GST-tagged (PHO4, Saccharomyces cerevisiae, UniProt P07270, residues 1-312)
Notes: whole 60-bp probe, lowest competitor level
Target sequence (chain): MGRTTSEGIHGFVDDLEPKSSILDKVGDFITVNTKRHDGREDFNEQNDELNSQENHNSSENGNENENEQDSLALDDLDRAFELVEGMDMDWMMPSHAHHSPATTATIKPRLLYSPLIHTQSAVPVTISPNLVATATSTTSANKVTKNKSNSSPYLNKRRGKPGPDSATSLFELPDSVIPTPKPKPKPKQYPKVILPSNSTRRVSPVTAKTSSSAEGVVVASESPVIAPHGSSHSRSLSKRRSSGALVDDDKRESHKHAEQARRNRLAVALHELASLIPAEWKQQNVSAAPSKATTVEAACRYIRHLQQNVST
| Sequence | fluorescence intensity [a.u.] |
| --- | --- |
| GATTGGTTAAAATTGATCATGACAGACGTCTCATCC | 3360 |
| CGGGGTTAAGTTTTGCACGTGTTTTGCTTGCAGCAG | 16500 |
| TGCTTCGTTTTTTGCCACGTGTCGGATCTGGCCTAT | 19300 |
| CATACCCAACCTTGGTGGGTGGGTGAAGATATTTGT | 4150 |
| TGCGCAACAACTTGTCACTGTACTTTATGTCTAGAA | 2940 |
| CAGCAACTTAGTTTGCACGTGGCCGTCCTCTGTGTG | 20400 |
| ATGTGTAAATCCGATACCAATAAAGTCAATGATAGG | 4700 |
| ACACAGAGCGGCTGAAGCGTGATGGATGCCCAGGTA | 5570 |

Series 4 — observed: enzyme activity; action: inhibitor; tested at: 20 µM; notes: primary screen
Target: Replicase polyprotein 1ab, main protease (rep, Severe acute respiratory syndrome coronavirus 2, UniProt P0DTD1)
| Compound | inhibition |
| --- | --- |
| CO[C@H]1C([C@@]2(C)O[C@@H]2CC=C(C)C)[C@]2(CC[C@H]1OC(=O)/C=C/C=C/C=C/C=C/C(=O)O)CO2 (stereo partly shown) | 45.3% |
| C=CCN1CCc2cc(O)c(O)cc2C(c2ccccc2)C1 (stereo not shown) | 81% |
| O=C(O)Cn1c2c(c3cc(F)ccc31)CN(C(=O)c1cccc3ccccc13)CC2 | 26.3% |

Excerpt of the above (series 1):
| SMILES | viability |
| --- | --- |
| C[C@@H]1O[C@@H](OC[C@H]2O[C@@H](Oc3c(-c4ccc(O)c(O)c4)oc4cc(O)cc(O)c4c3=O)[C@H](O)[C@@H](O)[C@@H]2O)[C@H](O)[C@H](O)[C@H]1O | 99.7% |
| CN(C/C=C/C#CC(C)(C)C)Cc1cccc2ccccc12 | 97.1% |
| O=C(O)Cc1ccccc1Nc1c(Cl)cccc1Cl | 101% |
